# Results pooled from the literature.
# Protocols differ between the studies behind these lines. Numbers after ± are the reported error.
# rep main protease: Replicase polyprotein 1ab, main protease (rep, Severe acute respiratory syndrome coronavirus 2, UniProt P0DTD1)
# rep papain-like protease: Replicase polyprotein 1ab, papain-like protease (rep, Severe acute respiratory syndrome coronavirus 2, UniProt P0DTD1)
# OPRM1: Mu-type opioid receptor (OPRM1, Homo sapiens, UniProt P35372)
# Chain of UniProt P35372 (whole entry, looked up): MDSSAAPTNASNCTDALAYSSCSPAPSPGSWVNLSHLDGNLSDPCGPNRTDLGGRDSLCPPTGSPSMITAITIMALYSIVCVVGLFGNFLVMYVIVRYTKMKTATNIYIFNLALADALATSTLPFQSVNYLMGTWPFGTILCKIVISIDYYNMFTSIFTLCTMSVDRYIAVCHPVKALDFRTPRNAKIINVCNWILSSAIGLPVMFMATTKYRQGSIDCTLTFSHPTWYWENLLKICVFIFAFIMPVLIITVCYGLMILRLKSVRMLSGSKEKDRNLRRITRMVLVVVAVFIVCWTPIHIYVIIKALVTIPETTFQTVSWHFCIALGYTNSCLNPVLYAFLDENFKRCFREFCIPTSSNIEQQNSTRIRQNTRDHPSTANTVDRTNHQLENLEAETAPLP
Structure (SMILES),tested on,assay,test system,conditions,measurement,value
C=CC(=O)NC(CC(=C)C)C(=O)N1CC(C(=O)NC(Cc2ccco2)C(=O)NC)C(c2cccc(C(F)(F)F)c2)C1 (stereo not shown),rep main protease,,,,IC50,22.8 µM
CC(=O)N[C@@H](Cc1ccc(O)cc1)C(=O)N[C@@H](CC(=O)O)C(=O)N[C@H]1CCC[C@@H]1C(=O)N[C@@H](Cc1ccccc1)C(=O)N[C@@H](Cc1ccc(O)cc1)C(=O)N[C@H]1CCC[C@@H]1C(=O)N[C@@H](Cc1ccc(O)cc1)C(=O)N[C@H](C(=O)N[C@H](C(=O)N[C@@H](Cc1ccccc1)C(=O)N[C@@H](Cc1c[nH]cn1)C(=O)N[C@H](C(=O)N[C@@H](C)C(=O)N[C@H](C(N)=O)[C@@H](C)O)C(C)C)[C@@H](C)O)C(C)C,rep main protease,"enzyme activity, inhibitor",,,IC50,0.64 µM
CCCCCCCCCCCCC[C@@H](O)Cc1cc(O)cc(O)c1,rep main protease,"enzyme activity, inhibitor",,with preincubation,IC50,> 100 µM
Cc1ccc(OCCN(C)C)cc1C(=O)N[C@H](C)c1cc(-c2cnn(CCN3CCOCC3)c2)cc(-c2ccn(C)n2)c1,rep papain-like protease,"enzyme activity, inhibitor, FRET",,,IC50,0.117 µM
CCOC(=O)[C@@H](NC(=O)c1ccccc1[Se][Se]c1ccccc1C(=O)N[C@H](C(=O)OCC)C(C)C)C(C)C,rep main protease,"enzyme activity, inhibitor",,,IC50,1.39 µM
CCc1cccc2c(C(=O)NC3CCN(C(=O)C(C)C)CC3)c[nH]c12,rep main protease,"enzyme activity, inhibitor",,,IC50,6.45 µM
Cc1ccccc1[C@@H](C)N(C)Cc1cc(O)ccc1Cl,rep papain-like protease,"enzyme activity, inhibitor, fluorescence",,,IC50,8.19 µM
COc1cc(-c2oc3cc(O)cc(O)c3c(=O)c2O[C@@H]2O[C@H](CO[C@@H]3O[C@@H](C)[C@H](O)[C@@H](O)[C@H]3O)[C@@H](O)[C@H](O)[C@H]2O)cc(O)c1O,rep main protease,"enzyme activity, inhibitor",,3 min preincubation,IC50,35.4 µM
CNC(=O)C[C@H](Cc1ccc(F)cc1)NC(=O)[C@@H](Cc1ccc(F)cc1F)NC(=O)[C@H](N)Cc1ccccc1C#N,rep main protease,"enzyme activity, inhibitor, fluorescence",,,IC50,2 µM
CC(C)C[C@H](NC(=O)[C@H](CO[C@@H]1O[C@H](CO)[C@@H](O)[C@H](O)[C@H]1O)NC(=O)[C@H](CCCCN)NC(=O)[C@H](CC(C)C)NC(=O)[C@H](C)NC(=O)[C@H](CCCCN)NC(=O)[C@H](CCC(=O)O)NC(=O)C(C)(C)NC(=O)[C@H](CC(C)C)NC(=O)[C@H](CC(N)=O)NC(=O)[C@@H]1CCCN1C(=O)[C@H](CC(C)C)NC(=O)[C@H](Cc1ccccc1)NC(=O)CNC(=O)[C@H](NC(=O)[C@@H](N)Cc1ccc(O)cc1)[C@H](C)O)C(N)=O,OPRM1,radioligand displacement,CHO membranes,"60 min, pH 7.5, 25 °C, together with: 0.25 nM [3H]DAMGO",Ki,0.0061 ± 0.00031 µM
CCCNC(=O)C1OC1C(=O)NC(C(=O)N1CCCC1C(=O)OC)C(C)CC (stereo not shown),rep papain-like protease,inhibitor,,,IC50,39.4 µM
CCOC(=O)ONC(=O)CC(c1ccccc1)c1ccccc1,rep main protease,"enzyme activity, inhibitor, FRET",,,IC50,18.8 µM
CC(C)C[C@H](NC(=O)[C@H](CO[C@@H]1O[C@H](CO)[C@@H](O[C@@H]2O[C@H](CO)[C@H](O)[C@H](O)[C@H]2O)[C@H](O)[C@H]1O)NC(=O)[C@H](CCCCN)NC(=O)[C@H](CC(C)C)NC(=O)CNC(=O)[C@H](CCCCN)NC(=O)[C@H](CCC(=O)O)NC(=O)[C@H](C)NC(=O)[C@H](CC(C)C)NC(=O)[C@H](CC(N)=O)NC(=O)[C@@H]1CCCN1C(=O)[C@H](CC(C)C)NC(=O)[C@H](Cc1ccccc1)NC(=O)CNC(=O)[C@H](NC(=O)[C@@H](N)Cc1ccc(O)cc1)[C@H](C)O)C(N)=O,OPRM1,radioligand displacement,CHO membranes,"60 min, pH 7.5, 25 °C, together with: 0.25 nM [3H]DAMGO",Ki,0.0096 ± 0.00018 µM
O=C(NC1CCC(F)(F)CC1)C(c1cncnc1)N(C(=O)C(F)Cl)c1ccc(-c2cncs2)cc1 (stereo not shown),rep main protease,"enzyme activity, inhibitor",,,IC50,0.061 µM
COC(=O)C(CO)NC(=O)CC(O)C(Cc1ccccc1)NC(=O)OC(C)(C)C (stereo not shown),rep papain-like protease,"enzyme activity, inhibitor, FRET",,,IC50,1.46 µM
Cc1oc2nc1C(=O)N[C@](C)(C(=O)NCCc1ccc(N(C)C)cc1)c1nc(c(C)o1)C(=O)N[C@](C)(C(=O)NCCc1ccc(N(C)C)cc1)c1nc(c(C)o1)C(=O)N[C@]2(C)C(=O)NCCc1ccc(N(C)C)cc1,rep main protease,"enzyme activity, inhibitor",,,IC50,18.3 µM
N#CC(CC1CCCNC1=O)NC(=O)C(CC1CC1)NC(=O)c1cc2cc(F)cc(F)c2[nH]1 (stereo not shown),rep main protease,"enzyme activity, inhibitor",,,IC50,0.007 µM
CCCCCCCCCCCCCCCC(=O)N[C@@H](CCC(=O)NCCOCCOCCC(=O)NCCOCCOCCC(=O)NCCCC[C@H](NC(=O)[C@H](CC(=O)O)NC(=O)[C@H](CC(C)C)NC(=O)[C@H](Cc1ccc(O)cc1)NC(=O)[C@H](CCCCN)NC(=O)[C@H](CO)NC(=O)[C@H](Cc1ccc(O)cc1)NC(=O)[C@H](CC(=O)O)NC(=O)[C@H](CO)NC(=O)[C@@H](NC(=O)[C@H](Cc1ccccc1)NC(=O)[C@@H](NC(=O)CNC(=O)[C@H](CCC(N)=O)NC(=O)[C@@H](CO)NC(=O)[C@@H](N)Cc1c[nH]cn1)[C@@H](C)O)[C@@H](C)O)C(=O)N[C@@H](CCCNC(=N)N)C(=O)N[C@@H](CCCNC(=N)N)C(=O)N[C@@H](C)C(=O)N[C@@H](CCC(N)=O)C(=O)N[C@@H](CC(=O)O)C(=O)N[C@@H](Cc1ccccc1)C(=O)N[C@H](C(=O)N[C@@H](CCC(N)=O)C(=O)N[C@@H](Cc1c[nH]c2ccccc12)C(=O)N[C@@H](CC(C)C)C(=O)N[C@@H](CC(C)C)C(=O)N[C@@H](CC(N)=O)C(=O)N[C@H](C(=O)NCC(=O)NCC(=O)N1CCC[C@H]1C(=O)N[C@@H](CO)C(=O)N[C@@H](CO)C(=O)NCC(=O)N[C@@H](C)C(=O)N1CCC[C@H]1C(=O)N1CCC[C@H]1C(=O)N1CCC[C@H]1C(=O)N[C@@H](CO)C(N)=O)[C@@H](C)O)C(C)C)C(=O)O,,,"rhesus monkey, plasma","intravenous, 15.3 µg/kg, single dose",clearance,0.897 mL/min/kg
NC(=O)CCC1CCCN(C(=O)c2c[nH]n3c2nc(=O)c2ccccc23)C1 (stereo not shown),rep main protease,"enzyme activity, inhibitor",,,IC50,21.3 µM

# Excerpt of the above:
Structure (SMILES),tested on,assay,test system,conditions,measurement,value
C=CC(=O)NC(CC(=C)C)C(=O)N1CC(C(=O)NC(Cc2ccco2)C(=O)NC)C(c2cccc(C(F)(F)F)c2)C1 (stereo not shown),rep main protease,,,,IC50,22.8 µM
CCOC(=O)ONC(=O)CC(c1ccccc1)c1ccccc1,rep main protease,"enzyme activity, inhibitor, FRET",,,IC50,18.8 µM
